Assay results pooled from the literature.
Every numbered part comes from another study and shows a few of its results, in no order. Substitutions count along the parent as printed.

Series 1 — target: CCNB2, cyclin fold, Cln2 fusion (human); technique: yeast growth competition, sequencing; matrix: yeast; notes: weak parent motif; relative to: not given; direction: higher = stronger binding
Starting sequence: RBL1 docking peptide (human); GSAKRRLFGEDPP; partner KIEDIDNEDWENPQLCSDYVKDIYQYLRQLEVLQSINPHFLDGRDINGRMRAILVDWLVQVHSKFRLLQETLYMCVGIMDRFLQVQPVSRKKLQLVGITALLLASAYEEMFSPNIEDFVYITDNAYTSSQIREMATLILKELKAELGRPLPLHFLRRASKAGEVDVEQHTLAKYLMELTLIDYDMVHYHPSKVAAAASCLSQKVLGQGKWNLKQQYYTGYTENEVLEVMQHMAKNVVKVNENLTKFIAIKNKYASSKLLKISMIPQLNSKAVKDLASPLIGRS
Variant | normalised enrichment score
R5Y | -0.325
G9A | 0.5
D11M | 0.0401
K4A | -0.0772
P12M | 0.066
D11N | 0.41
F8N | -0.131
G1I | 1.26
F8P | 0.212
R6H | -0.143
F8E | -0.465

Series 2 — technique: DHFR PCA, deep sequencing; matrix: yeast; together with: (+)-ABA 58 µM; relative to: wild-type fitted maximum; direction: higher = stronger binding
Target: ABI1, truncated, D143A, DHFR fusion (Arabidopsis thaliana)
Notes: methotrexate growth selection, single substitutions
Starting sequence: PYL1, truncated, DHFR fusion (Arabidopsis thaliana); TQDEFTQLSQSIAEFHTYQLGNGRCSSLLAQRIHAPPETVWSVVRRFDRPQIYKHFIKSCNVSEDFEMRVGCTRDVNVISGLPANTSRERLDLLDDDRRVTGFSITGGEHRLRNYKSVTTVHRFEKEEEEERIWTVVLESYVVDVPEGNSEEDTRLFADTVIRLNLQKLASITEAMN
Variant | relative binding score
R69W | 39.4%
V118P | 2.28%
S150R | 51.9%
Y18I | 67.4%
P37H | 31.6%
Y141A | -7.45%
R132Y | 85.1%
T173L | 58.3%
S26E | 33.1%
Q10T | 89.9%

Series 3 — technique: protein binding microarray; form: double-stranded DNA, one strand shown; matrix: in vitro; concentration: not given; relative to: not given; direction: higher = stronger binding
Target: Histone acetyltransferase KAT6A, winged helix 2, GST fusion (KAT6A, Homo sapiens, UniProt Q92794, residues 85-181)
Notes: 8-mer, flanks averaged, mean of 2 arrays, mostly near background
Residues (chain): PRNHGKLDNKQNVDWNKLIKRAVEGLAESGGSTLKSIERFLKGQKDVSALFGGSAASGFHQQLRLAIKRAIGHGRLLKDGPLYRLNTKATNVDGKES
Sequence | E-score
AAATGGTA | -0.054
AGGCTGAA | 0.0237
AGCTAAAG | 0.00688
TCCCCTCA | 0.0768
CGAAGAGC | -0.0047
GATCTATA | 0.059
CATACTCC | -0.0777
ATGAGATA | -0.0177
TCCGGAGA | -0.107
CTGAATGA | 0.00456
CTGATAGA | 0.0887
ACTAATTC | 0.0559
CGCCCTCC | 0.0674
CCGATCCA | -0.089

Series 4 — technique: RNA Bind-n-Seq; form: RNA; matrix: in vitro; concentration: not given; notes: RNA with constant flanks, ends assumed; relative to: input RNA pool; direction: higher = stronger binding
Target: RING finger protein unkempt homolog, zinc fingers 1-6, GST-SBP tag (UNK, Homo sapiens, UniProt Q9C0B0, residues 30-357)
Sequence of UniProt Q9C0B0 (30-357, looked up): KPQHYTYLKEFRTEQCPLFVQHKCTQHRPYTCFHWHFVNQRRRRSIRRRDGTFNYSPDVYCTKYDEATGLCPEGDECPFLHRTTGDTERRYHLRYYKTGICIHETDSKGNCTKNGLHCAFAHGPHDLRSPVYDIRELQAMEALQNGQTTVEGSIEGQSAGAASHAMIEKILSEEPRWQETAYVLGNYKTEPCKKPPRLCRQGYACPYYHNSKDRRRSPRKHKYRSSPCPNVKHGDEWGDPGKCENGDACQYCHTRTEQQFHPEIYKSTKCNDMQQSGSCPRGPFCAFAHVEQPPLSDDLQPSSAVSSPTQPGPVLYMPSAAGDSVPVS
Sequence | bound/input enrichment [ratio]
GGGAGUUCUACAGUCCGACGAUCUCUCCGCUGAACCCCAUUUCUUCUGUUUCAUAGUGCAGAAGUAUUCUUUCAACUAUAUUUUCCGUGGACUUGUUUUAAUUUUAGAGGAAUUUCCAGUACAGAUGCUGUGAGCUGACAUGGCAACAGAGGAUUGAGCAUCA | 2.12
GGGAGUUCUACAGUCCGACGAUCAGACCAGAAACCAUGUUGUGAUUUCUUUUUAUCUUAGAAAACAUUUCUAUUUACAAUAAACCGUUACUAUGUAAAUAAUGUACAUAUGUAUUAAUUUCUUCAGUGUUAUACAAUGUAUAUCAACAGAGGAUUGAGCAUCA | 2.41
GGGAGUUCUACAGUCCGACGAUCUGCCUGGCGCAGGUGUUGCAGAAGGAUGUGGGGAAACGAUUGCAGGUUGGCCAAGAACUGACCGACUAUUUCUCAGACAAACAGAAGUCUGCUGACCUUGAGCAUGACCAGACCAUGUUACAACAGAGGAUUGAGCAUCA | 0.116
GGGAGUUCUACAGUCCGACGAUCUGAACACAUGACGUCAGAUCAAAGAAAACAGAUCUUCUCCAGAUUGGCAGAAAGUUGAUACCGGUGGACUUUUUUACAGGUCAGUUGAGGCAAAAAACUAUGGGUUUUUUCAGGUGAACCCAACAGAGGAUUGAGCAUCA | 0.302
